{"data": "Experimental data from different studies", "note": "Numbered parts are unrelated; each lists some results of a single study.", "sequence of UniProt Q96L34 (whole entry, looked up)": "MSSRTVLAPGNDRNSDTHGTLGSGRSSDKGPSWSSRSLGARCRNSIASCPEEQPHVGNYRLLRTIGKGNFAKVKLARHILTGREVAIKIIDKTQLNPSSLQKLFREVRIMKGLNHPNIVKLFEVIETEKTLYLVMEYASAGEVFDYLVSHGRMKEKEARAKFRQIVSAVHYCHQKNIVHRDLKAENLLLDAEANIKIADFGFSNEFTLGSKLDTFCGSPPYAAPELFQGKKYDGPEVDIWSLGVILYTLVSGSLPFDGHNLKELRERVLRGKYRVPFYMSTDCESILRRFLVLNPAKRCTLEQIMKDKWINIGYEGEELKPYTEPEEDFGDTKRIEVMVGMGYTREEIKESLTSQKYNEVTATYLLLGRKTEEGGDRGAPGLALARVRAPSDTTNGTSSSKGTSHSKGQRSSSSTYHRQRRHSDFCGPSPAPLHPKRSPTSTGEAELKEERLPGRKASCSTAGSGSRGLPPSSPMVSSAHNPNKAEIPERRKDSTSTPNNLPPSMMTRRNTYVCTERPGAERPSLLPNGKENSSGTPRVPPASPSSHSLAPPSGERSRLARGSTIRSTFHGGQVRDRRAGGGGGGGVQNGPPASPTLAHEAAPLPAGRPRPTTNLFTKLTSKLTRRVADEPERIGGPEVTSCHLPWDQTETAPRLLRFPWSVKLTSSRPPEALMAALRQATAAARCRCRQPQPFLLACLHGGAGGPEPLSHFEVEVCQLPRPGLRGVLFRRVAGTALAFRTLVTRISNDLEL", "sequence of UniProt P22455 (whole entry, looked up)": "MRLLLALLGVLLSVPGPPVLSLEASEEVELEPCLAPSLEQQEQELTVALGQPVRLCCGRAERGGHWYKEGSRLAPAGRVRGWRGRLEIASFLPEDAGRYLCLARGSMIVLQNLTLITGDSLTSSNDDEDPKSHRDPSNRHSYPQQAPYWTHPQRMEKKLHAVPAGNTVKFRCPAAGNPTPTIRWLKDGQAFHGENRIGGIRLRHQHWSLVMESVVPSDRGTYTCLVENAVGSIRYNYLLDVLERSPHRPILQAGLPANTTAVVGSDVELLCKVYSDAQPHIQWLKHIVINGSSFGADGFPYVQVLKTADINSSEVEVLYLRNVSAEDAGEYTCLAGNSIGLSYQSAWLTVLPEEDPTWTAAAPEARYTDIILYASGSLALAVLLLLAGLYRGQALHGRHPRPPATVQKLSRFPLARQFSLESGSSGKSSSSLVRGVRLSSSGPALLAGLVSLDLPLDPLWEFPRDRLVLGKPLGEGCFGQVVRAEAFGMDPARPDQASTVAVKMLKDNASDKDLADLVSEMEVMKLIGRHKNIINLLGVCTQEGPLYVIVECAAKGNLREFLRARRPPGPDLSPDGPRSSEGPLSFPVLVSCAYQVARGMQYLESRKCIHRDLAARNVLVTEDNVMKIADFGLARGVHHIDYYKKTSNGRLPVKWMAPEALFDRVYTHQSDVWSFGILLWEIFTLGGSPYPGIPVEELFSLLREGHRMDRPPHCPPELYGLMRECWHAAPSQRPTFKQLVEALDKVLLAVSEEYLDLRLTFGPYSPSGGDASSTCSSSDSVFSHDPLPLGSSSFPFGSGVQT", "sequence of UniProt Q02750 (whole entry, looked up)": "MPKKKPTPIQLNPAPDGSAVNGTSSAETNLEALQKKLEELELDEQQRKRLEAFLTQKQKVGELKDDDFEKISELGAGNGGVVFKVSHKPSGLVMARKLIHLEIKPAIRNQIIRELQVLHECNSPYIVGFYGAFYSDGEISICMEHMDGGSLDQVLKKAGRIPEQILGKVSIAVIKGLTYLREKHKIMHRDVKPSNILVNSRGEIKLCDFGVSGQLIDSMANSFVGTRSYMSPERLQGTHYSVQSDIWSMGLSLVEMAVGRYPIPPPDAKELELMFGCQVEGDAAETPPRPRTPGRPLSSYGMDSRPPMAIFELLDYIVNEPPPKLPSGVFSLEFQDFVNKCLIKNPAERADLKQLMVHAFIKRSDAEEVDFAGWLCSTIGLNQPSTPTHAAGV", "sequence of UniProt Q13464 (whole entry, looked up)": "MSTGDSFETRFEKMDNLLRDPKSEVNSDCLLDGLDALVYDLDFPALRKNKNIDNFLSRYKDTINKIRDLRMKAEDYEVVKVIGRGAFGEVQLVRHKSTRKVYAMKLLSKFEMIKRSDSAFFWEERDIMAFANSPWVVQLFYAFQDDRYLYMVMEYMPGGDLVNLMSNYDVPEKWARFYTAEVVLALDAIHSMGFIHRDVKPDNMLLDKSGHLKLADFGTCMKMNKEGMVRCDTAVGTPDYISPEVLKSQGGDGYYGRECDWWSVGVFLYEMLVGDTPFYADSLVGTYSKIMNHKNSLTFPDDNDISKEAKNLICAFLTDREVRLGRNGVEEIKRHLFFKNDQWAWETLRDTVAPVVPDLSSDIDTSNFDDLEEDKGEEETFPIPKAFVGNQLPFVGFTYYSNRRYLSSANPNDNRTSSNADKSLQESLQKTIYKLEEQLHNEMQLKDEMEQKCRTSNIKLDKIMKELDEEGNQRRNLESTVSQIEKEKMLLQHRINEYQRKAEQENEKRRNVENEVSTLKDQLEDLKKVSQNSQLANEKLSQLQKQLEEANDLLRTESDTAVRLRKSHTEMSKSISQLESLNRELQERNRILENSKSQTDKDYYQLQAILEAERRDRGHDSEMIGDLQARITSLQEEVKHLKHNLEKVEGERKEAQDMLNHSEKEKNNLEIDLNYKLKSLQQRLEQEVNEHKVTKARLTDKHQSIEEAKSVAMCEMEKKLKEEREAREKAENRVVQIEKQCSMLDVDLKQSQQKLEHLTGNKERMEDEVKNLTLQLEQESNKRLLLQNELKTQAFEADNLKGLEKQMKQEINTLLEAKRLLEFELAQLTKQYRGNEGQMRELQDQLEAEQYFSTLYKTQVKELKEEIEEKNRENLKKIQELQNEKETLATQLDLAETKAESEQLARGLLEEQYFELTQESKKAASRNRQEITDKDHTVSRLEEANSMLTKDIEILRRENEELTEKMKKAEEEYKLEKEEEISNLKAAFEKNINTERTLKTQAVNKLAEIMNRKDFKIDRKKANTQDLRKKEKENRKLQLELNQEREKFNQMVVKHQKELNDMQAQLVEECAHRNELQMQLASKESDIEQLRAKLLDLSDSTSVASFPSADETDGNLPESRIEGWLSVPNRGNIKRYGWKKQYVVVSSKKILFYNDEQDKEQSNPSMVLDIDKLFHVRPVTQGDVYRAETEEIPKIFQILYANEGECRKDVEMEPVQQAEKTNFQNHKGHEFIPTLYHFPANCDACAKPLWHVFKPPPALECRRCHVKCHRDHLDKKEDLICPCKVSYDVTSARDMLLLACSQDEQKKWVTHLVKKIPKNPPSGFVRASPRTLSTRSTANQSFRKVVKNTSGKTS", "sequence of UniProt Q8N568 (whole entry, looked up)": "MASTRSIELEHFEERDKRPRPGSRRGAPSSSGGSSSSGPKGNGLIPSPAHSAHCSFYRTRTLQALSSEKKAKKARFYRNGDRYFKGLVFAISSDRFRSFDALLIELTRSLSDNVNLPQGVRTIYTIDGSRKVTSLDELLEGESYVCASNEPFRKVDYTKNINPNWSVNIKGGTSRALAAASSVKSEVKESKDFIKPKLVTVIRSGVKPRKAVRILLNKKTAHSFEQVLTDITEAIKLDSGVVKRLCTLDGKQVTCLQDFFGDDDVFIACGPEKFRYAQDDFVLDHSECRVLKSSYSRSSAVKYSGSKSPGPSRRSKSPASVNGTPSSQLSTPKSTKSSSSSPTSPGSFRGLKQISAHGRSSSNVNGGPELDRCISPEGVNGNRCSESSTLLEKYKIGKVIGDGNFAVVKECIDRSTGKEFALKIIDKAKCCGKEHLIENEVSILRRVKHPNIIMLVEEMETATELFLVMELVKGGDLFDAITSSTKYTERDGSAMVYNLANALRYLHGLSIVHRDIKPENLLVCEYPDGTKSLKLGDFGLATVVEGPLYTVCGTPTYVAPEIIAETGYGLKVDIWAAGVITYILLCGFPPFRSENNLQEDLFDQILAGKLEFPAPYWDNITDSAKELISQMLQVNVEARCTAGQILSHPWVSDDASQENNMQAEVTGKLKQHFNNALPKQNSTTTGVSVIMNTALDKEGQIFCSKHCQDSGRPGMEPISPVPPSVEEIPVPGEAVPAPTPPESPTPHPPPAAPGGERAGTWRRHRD", "sequence of UniProt Q16539 (whole entry, looked up)": "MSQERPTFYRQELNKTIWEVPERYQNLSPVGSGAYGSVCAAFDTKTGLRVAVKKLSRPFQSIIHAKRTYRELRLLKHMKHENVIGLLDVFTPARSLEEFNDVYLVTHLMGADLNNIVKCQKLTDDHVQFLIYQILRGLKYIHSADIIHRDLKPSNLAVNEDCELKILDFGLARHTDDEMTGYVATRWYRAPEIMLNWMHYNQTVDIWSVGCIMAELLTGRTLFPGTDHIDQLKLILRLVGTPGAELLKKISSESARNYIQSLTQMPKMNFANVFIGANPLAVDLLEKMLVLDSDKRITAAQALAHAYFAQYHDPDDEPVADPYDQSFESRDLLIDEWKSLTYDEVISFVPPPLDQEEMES", "sequence of UniProt Q9HAZ1 (whole entry, looked up)": "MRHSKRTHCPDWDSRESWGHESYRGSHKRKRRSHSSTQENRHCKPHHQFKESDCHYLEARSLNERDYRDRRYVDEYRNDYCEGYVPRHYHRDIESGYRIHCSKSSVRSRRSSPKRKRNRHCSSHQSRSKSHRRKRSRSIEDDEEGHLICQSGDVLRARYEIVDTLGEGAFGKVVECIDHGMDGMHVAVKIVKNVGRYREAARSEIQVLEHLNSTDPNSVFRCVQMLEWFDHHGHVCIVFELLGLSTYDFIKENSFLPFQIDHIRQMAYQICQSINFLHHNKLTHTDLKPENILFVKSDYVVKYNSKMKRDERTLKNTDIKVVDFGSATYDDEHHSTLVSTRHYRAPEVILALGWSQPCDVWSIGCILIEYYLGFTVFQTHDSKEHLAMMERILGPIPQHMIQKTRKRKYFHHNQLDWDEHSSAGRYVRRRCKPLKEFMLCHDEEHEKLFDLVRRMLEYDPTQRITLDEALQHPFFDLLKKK"}
{"data": "Sample 1", "SMILES": "O=C1NC(=O)c2c1c1c3ccccc3[nH]c1n1cncc21", "observed": "enzyme activity", "mode": "inhibitor", "concentration": "0.5 µM", "reference": "control"}
{"target": "Calcium/calmodulin-dependent protein kinase type 1B (PNCK, Homo sapiens, UniProt Q6P2M8)", "remaining activity [%]": 105}
{"target": "Serine/threonine-protein kinase DCLK2 (DCLK2, Homo sapiens, UniProt Q8N568)", "remaining activity [%]": 82.3}
{"target": "Dual specificity mitogen-activated protein kinase kinase 1 (MAP2K1, Homo sapiens, UniProt Q02750)", "remaining activity [%]": 102}
{"target": "Mitogen-activated protein kinase 14 (MAPK14, Homo sapiens, UniProt Q16539)", "remaining activity [%]": 101}
{"target": "Rho-associated protein kinase 1 (ROCK1, Homo sapiens, UniProt Q13464)", "remaining activity [%]": 95.9}
{"target": "Serine/threonine-protein kinase PAK 3 (PAK3, Homo sapiens, UniProt O75914)", "remaining activity [%]": 100}
{"target": "MAP/microtubule affinity-regulating kinase 4 (MARK4, Homo sapiens, UniProt Q96L34)", "remaining activity [%]": 26.8}
{"target": "Cyclin-dependent kinase 9, with cyclin K (CDK9, Homo sapiens, UniProt P50750)", "remaining activity [%]": 83.8}
{"target": "Serine/threonine-protein kinase PLK3 (PLK3, Homo sapiens, UniProt Q9H4B4)", "remaining activity [%]": 48.2}
{"target": "G protein-coupled receptor kinase 4 (GRK4, Homo sapiens, UniProt P32298)", "remaining activity [%]": 101}
{"target": "Misshapen-like kinase 1 (MINK1, Homo sapiens, UniProt Q8N4C8)", "remaining activity [%]": 48.2}
{"target": "Ribosomal protein S6 kinase alpha-4 (RPS6KA4, Homo sapiens, UniProt O75676)", "remaining activity [%]": 61.3}
{"target": "Dual specificity protein kinase CLK4 (CLK4, Homo sapiens, UniProt Q9HAZ1)", "remaining activity [%]": 99}
{"data": "Sample 2", "species": "mouse", "matrix": "microsomes or S9", "concentration": "2 µM", "time": "0.5 h"}
{"Structure (SMILES)": "N[C@@H](CC(=O)N1CCCN(Cc2ccccc2)CC1)Cc1cc(F)c(F)cc1F", "remaining compound": "1.88%"}
{"Structure (SMILES)": "NC(=O)C1CCCC1NC(=O)c1cc2ccccn2c1 (centres unmarked)", "remaining compound": "97.8%"}
{"Structure (SMILES)": "c1ccc(C(CNc2ncccn2)c2ccccc2)cc1", "remaining compound": "0.369%"}
{"Structure (SMILES)": "CC(C)CCn1cc(C(=O)Nc2cccc3[nH]ccc23)c2ccccc2c1=O", "remaining compound": "25.7%"}
{"Structure (SMILES)": "Cc1cc(C)n(-c2nc(NCc3ccco3)c3c4c(sc3n2)COC(C)(C)C4)n1", "remaining compound": "5.01%"}
{"Structure (SMILES)": "Cn1[nH]c(Br)c2/c(=N\\CCN)ncnc1-2", "remaining compound": "65%"}
{"Structure (SMILES)": "COc1ccc(-c2c(-n3cncn3)c([S+](C)[O-])nn2-c2ccc(F)cc2)cc1 (centres unmarked)", "remaining compound": "38.1%"}
{"Structure (SMILES)": "CC(=O)N1CCN(C(=O)Cn2nc(C)c(C)c2C)CC(O)C1 (centres unmarked)", "remaining compound": "24.7%"}
{"data": "Sample 3", "Compound": "Cc1c(NC(=O)c2cc(C(N)=O)nc3cc(F)ccc23)c(C(F)(F)F)nn1Cc1ccc(C(C)(C)C)cc1", "observed": "cell-free assay", "technique": "competition with immobilised ligand", "concentration": "1 µM"}
{"target": "Ribosomal protein S6 kinase alpha-2, C-terminal kinase domain (RPS6KA2, Homo sapiens, UniProt Q15349)", "remaining binding": "100%"}
{"target": "Epidermal growth factor receptor (EGFR, Homo sapiens, UniProt P00533, del752-759)", "remaining binding": "75%"}
{"target": "Fibroblast growth factor receptor 4 (FGFR4, Homo sapiens, UniProt P22455)", "remaining binding": "100%"}
{"target": "Dual specificity mitogen-activated protein kinase kinase 7 (MAP2K7, Homo sapiens, UniProt O14733)", "remaining binding": "100%"}
{"target": "Homeodomain-interacting protein kinase 2 (HIPK2, Homo sapiens, UniProt Q9H2X6)", "remaining binding": "100%"}
{"target": "Myosin light chain kinase, smooth muscle (MYLK, Homo sapiens, UniProt Q15746)", "remaining binding": "97%"}
{"target": "Cyclin-dependent kinase-like 5 (CDKL5, Homo sapiens, UniProt O76039)", "remaining binding": "100%"}
{"target": "Non-receptor tyrosine-protein kinase TNK1 (TNK1, Homo sapiens, UniProt Q13470)", "remaining binding": "100%"}
{"data": "Sample 4", "Compound": "COc1cc(C(=O)N2CCC(N3CCN(C)CC3)CC2)ccc1Nc1ncc2c(n1)N(C)c1ccccc1C(=O)N2C"}
{"target": "CASK (mouse)", "test": "probe labelling, KiNativ ATP probe", "system": "mouse brain lysate", "conditions": "1 µM, LYS1 labelled site", "inhibition": "18.5%"}
{"target": "mouse ROCK1", "test": "probe labelling, KiNativ ATP probe", "system": "mouse brain lysate", "conditions": "1 µM", "inhibition": "7.7%"}
{"target": "SRPK1/SRPK2 (mouse)", "test": "probe labelling, inhibitor, KiNativ ActivX ADP probe", "system": "mouse brain lysate", "conditions": "1 µM", "inhibition": "11.3%"}
{"target": "MAP2K4 (human)", "test": "probe labelling, KiNativ ADP probe", "system": "human PBMC lysate", "conditions": "concentration not given, LYS2 labelled site", "inhibition": "9.2%"}
{"target": "CDK9 (mouse)", "test": "probe labelling, KiNativ, measured: DMkAANVLITR peptide, LYS2 site", "system": "brain tissue lysate (mouse)", "conditions": "0.1 µM, together with: ATP acyl-phosphate probe", "inhibition": "-20.7%"}
{"target": "MST3 (mouse)", "test": "probe labelling, KiNativ ADP probe", "system": "mouse brain lysate", "conditions": "1 µM, LYS1 labelled site", "inhibition": "-29.1%"}
{"target": "SLK human", "test": "KiNativ profiling", "system": "human PBMC", "conditions": "0.1 µM, LYS2 site, together with: ATP acyl phosphate probe", "inhibition": "32.5%"}
{"target": "NEK6 and NEK7 human", "test": "KiNativ profiling", "system": "human PBMC", "conditions": "1 µM, LYS2 site, together with: ADP acyl phosphate probe", "inhibition": "9.6%"}
{"target": "SRPK1/SRPK2 (mouse)", "test": "probe labelling, inhibitor, KiNativ ActivX ATP probe", "system": "mouse brain lysate", "conditions": "0.1 µM", "inhibition": "37.4%"}
